# Measured values pooled from the literature.
# Numbered parts are unrelated; each lists some results of a single study. Values joined by “and” are separate records of one study, mostly repeats; a detail may differ.
# UniProt Q99640, sequence (whole entry, looked up): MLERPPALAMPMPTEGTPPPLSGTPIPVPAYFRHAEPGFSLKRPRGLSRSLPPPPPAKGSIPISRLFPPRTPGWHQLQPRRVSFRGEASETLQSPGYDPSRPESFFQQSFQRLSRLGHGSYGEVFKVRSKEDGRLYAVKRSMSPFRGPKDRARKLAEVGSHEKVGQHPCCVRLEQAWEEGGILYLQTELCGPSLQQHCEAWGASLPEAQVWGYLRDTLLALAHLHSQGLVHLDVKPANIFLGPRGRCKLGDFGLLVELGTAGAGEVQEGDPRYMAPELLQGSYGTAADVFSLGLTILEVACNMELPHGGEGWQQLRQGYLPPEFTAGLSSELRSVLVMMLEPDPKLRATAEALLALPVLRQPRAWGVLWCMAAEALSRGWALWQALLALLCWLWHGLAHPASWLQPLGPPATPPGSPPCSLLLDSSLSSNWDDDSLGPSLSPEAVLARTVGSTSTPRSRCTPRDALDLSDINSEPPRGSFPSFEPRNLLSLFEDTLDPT

# Sample 1
# Organism: Arabidopsis thaliana
# Strain: Col-0
# Concentration: 6.25 µg/mL
# Setting: seed germination, single repetition
Structure (SMILES),hypocotyl length
O=C(O)C1(O)Oc2cc(F)ccc2N(Cc2ccccc2)C1=O (stereo not shown),1.64 cm and 1.66 cm and 1.62 cm and 1.61 cm and 1.67 cm
O=C(O)C1(O)Oc2ccccc2N(Cc2ccccc2)C1=O (stereo not shown),1.92 cm and 1.91 cm and 1.9 cm
O=C(O)C1(O)Oc2cc(Br)ccc2N(Cc2ccccc2)C1=O (stereo not shown),2.01 cm and 2.03 cm and 2.02 cm

# Single results of other studies
SMILES,tested on,assay,test system,conditions,quantity,value
Cc1ccc(O)c(C)c1-c1cnc2[nH]c(-c3cnc(N4CCC(CN5CCC(c6ccc(NC7CCC(=O)NC7=O)cc6F)CC5)CC4)nc3)cc2c1C#N (stereo not shown),,,"female CD-1 mouse, plasma","oral, 10 mg/kg",Cmax,169 ng/mL
Cc1ncsc1-c1ccc(C(CO)NC(=O)C2CC(O)CN2C(=O)C(NC(=O)c2ccc(COc3c(-c4c(C)c(F)cc5[nH]ncc45)c(C4CC4)cc4c(N5CC6CC5CN6)nc(OC5CCOCC5)nc34)cc2)C(C)C)cc1 (stereo not shown),AsPC-1,in-cell ELISA,,"3 nM, individual replicates",phospho-ERK1/2 level,85.2% and 97.9% and 104% and 89.4% and 98.2% and 96.2%
Cc1ccc(O)c(C)c1-c1cnc2[nH]c(-c3cnc(N4CCC(CN5CCN(c6cc7c(cc6F)c(N6CCC(=O)NC6=O)nn7C)CC5)CC4)nc3)cc2c1C#N,,,"female CD-1 mouse, plasma","oral, 20 mg/kg",half-life,2.3 h
Cc1ncsc1-c1ccc(C(CO)NC(=O)C2CC(O)CN2C(=O)C(C(C)C)n2cc(-c3ccc(COc4c(-c5c(C)c(F)cc6[nH]ncc56)c(C5CC5)cc5c(N6CC7CC6CN7)nc(OC6CCOCC6)nc45)cc3)nn2)cc1 (stereo not shown),AsPC-1,"cell viability, CellTiter-Glo",,overall of experiments,IC50,0.0193 µM
Cc1ccc(O)c(C)c1-c1cnc2[nH]c(-c3cnc(N4CCC(CCN5CCN(c6cc7c(cc6F)c(N6CCC(=O)NC6=O)nn7C)CC5)CC4)nc3)cc2c1C#N,"Membrane-associated tyrosine- and threonine-specific cdc2-inhibitory kinase (PKMYT1, Homo sapiens, UniProt Q99640)","binding, HTRF",,12.35 nM,inhibition,90.7% and 91.9%
CN(C)CC#Cc1ccc(OCCCc2sc(N3CCc4cccc(C(=O)Nc5nc6ccccc6s5)c4C3)nc2C(=O)O)c(F)c1,normal colon organoid sample F,,,4 days,IC50,8.9 µM
Cc1ccc(O)c(C)c1-c1cnc2[nH]c(-c3cnc(N)nc3)cc2c1C#N,HCC1569,"in-cell western, item: CDK1 phospho-Thr14",,1.52 nM,pCDK1 (Thr14) level,13.9% and 15.1%

# Repeated from above (single results of other studies):
SMILES,tested on,assay,test system,conditions,quantity,value
Cc1ncsc1-c1ccc(C(CO)NC(=O)C2CC(O)CN2C(=O)C(C(C)C)n2cc(-c3ccc(COc4c(-c5c(C)c(F)cc6[nH]ncc56)c(C5CC5)cc5c(N6CC7CC6CN7)nc(OC6CCOCC6)nc45)cc3)nn2)cc1 (stereo not shown),AsPC-1,"cell viability, CellTiter-Glo",,overall of experiments,IC50,0.0193 µM
